Measured values from different studies.
Parts stem from different laboratories: compare values within a part only. Positions count from the first letter of the parent shown.

Study 1 — method: protein-binding microarray; molecule type: double-stranded DNA, one strand shown; matrix: in vitro; concentration: 250 nM; notes: 60-bp whole probe; with: salmon DNA 0.4 mg/ml; reference: random background probes; direction: higher = stronger binding; quantity: log fluorescence; all sequences stand within: GCCTAGCAC … GTCTTGATTCGCTTGACGCTGCTG
Target: Interferon regulatory factor 7, full length, phosphomimetic (IRF7, Homo sapiens, UniProt Q92985, residues 1-503, S101K/S471D/S472D/S475D/S476D/S477D/S483D/S484D/S487D)
Residues (chain): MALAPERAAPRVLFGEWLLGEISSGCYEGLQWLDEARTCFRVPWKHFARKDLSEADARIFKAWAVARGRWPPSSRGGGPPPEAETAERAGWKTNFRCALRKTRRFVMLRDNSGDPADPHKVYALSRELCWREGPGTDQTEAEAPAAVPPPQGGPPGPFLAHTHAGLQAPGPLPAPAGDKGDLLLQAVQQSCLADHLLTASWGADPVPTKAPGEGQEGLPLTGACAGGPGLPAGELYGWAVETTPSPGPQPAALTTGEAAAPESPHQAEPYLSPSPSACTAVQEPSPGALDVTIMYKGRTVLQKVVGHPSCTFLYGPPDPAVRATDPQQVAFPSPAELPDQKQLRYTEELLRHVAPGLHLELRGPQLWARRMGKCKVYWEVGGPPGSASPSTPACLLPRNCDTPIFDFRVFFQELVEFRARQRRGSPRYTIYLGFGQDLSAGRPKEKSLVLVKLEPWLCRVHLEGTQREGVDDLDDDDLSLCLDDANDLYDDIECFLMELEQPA
GACTTTTTACCTGTGGTGTAGTGCTAG: 0.301 z-score
ACCACTCTTGCTTTTTAGATGTGCTAG: 0.00753 z-score
TCAAGCATTACTTTAGGACTGTGCTAG: -0.43 z-score
CTGACATGTAAATGTGACATGTGCTAG: -0.0672 z-score
TCAGTTTCACTTTCCAAACTGTGCTAG: 11.5 z-score
TTAGGTTTCGGATTCGGTTAGTGCTAG: 12.2 z-score
TTAGGACCGGGTCTCGGTTAGTGCTAG: 2.76 z-score
TTAGAACTGGGTATCGATTAGTGCTAG: 0.608 z-score
GACGGATTCCTTCTCCTGACGTGCTAG: 0.386 z-score
TCACCTCTAGACTCTAAAACTGTGCTA: 0.179 z-score
GACGGTCTCCTTATCCTGTCGTGCTAG: 0.656 z-score
GACTGTTTGGTCCTGATCCTGTGCTAG: -0.0632 z-score
TTACGTTTCGGTTCCGGTTAGTGCTAG: 7.85 z-score
TCACCTCTAGGTTCTCTGACTGTGCTA: -0.163 z-score
TTAGAACTGAGTATCGATAAGTGCTAG: 0.248 z-score
ACCACTCCAGTTCTGGGAAAGTGCTAG: 0.111 z-score
CTCTGTCTGGGATGTAATTCCGTGCTA: -0.0232 z-score
GACGATATCGGGTTTCGAGAGGTGCTA: 1.46 z-score
GACGAACTGGGGTATTGAGACGTGCTA: -0.346 z-score

Study 2 — target: CCNB1, cyclin fold, Cln2 fusion (human); method: yeast growth competition, sequencing; matrix: yeast; notes: weak parent motif; reference: not given; direction: higher = stronger binding; quantity: normalised enrichment score
Starting sequence: WEE1 docking peptide (human); HKTFRKLRLFDTP
T3N: 0.0753
D11T: 0.623
K6A: 0.539
L7G: 1.01
K2H: 0.472
K2C: 0.837
P13N: 1.62
K6G: -0.665
K2Y: 0.92
R5D: 0.539
F4M: 0.614
F10E: -0.416
H1K: 0.727
L7N: 1.3
P13K: 0.764
F4C: 0.532
L7R: 0.748
T3A: 0.222
K2W: 0.278
T12W: 0.864
T12Q: 0.734
R8W: 1.73
T12S: 0.764
L9S: 1.33
D11I: -0.965

Study 3 — method: RNA Bind-n-Seq; molecule type: RNA; matrix: in vitro; concentration: not given; reference: input RNA pool; direction: higher = stronger binding; quantity: bound/input enrichment
Target: RING finger protein unkempt homolog, zinc fingers 1-6, GST-SBP tag (UNK, Homo sapiens, UniProt Q9C0B0, residues 30-357)
Notes: RNA with constant flanks, human and mouse sites, ends assumed
Residues (chain): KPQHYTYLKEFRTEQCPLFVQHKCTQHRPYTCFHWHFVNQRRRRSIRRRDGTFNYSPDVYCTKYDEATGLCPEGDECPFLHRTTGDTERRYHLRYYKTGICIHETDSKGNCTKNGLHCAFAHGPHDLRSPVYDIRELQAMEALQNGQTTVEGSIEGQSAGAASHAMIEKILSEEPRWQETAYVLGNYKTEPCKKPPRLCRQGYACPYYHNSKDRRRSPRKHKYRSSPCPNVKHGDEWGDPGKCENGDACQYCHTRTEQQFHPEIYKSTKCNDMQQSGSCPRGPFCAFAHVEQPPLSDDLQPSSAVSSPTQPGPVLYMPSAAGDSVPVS
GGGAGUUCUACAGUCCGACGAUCAAGGUUCAGACUGCAAAUGAAGUUAAGCAAGCUGUUGAACAGCAGAUCCAGAGCCAUAGAGAAACUCAUCAAAAACAGAUCAGUAGUUUGAGAGAUGAAGUAGAAGCAAAAGCAAAACUUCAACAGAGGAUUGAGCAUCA: 0.357 ratio
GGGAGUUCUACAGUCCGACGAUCGGAGGAAUGCCUUUUGCAAUAAUGUAUCCCUUCCCUGAUGGAGGGUGGGUGGGUGGACCCAGGCUCCCUUUGCACACGGAGCAGUACCUUCUAAGCCAUAUCGACUGUUGAGCAGAGGGUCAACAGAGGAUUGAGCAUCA: 0.231 ratio
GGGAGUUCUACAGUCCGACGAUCCGUCUCCAUGUAACGAUUCUUGACGUGUUUCUCUGAGAGUUGGCUUAUUUUGAUUAUCAAUUCUUUCUCACUGUCCAUUCCUAUUGAUUUAUCCUGCCAUAUCUCUUUGGGUUUGAUGAGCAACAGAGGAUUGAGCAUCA: 0.277 ratio
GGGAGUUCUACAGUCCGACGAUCGAAUCAACCAAUGAACAAUUACAGAUACAUUAUAAGGUAUGCUAUGCACGUGUUCUUGAUUAUAGAAGAAAAUUCAUUGAAGCUGCACAAAGGUACAAUGAGCUCUCUUACAAGACAAUACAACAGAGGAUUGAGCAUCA: 0.451 ratio
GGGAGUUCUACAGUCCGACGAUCAGGCCUUUGCCACAACCAAGAGAGGCUUGGGGAUUAUCUGACUCCUUCCAACCUGCUCUGCCACAGAGAGCAGCACAAACUACUCCAGCAUCCCAUUUGAAUGUAAGCCAGUAUAACACUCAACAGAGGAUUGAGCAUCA: 0.141 ratio
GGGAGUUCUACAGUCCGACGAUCGGAGGAGAAGACAAGCUAAAAAUGAUUCGGGAAUAUCGGCAAAUGGUUGAGACUGAGCUAAAGUUAAUCUGUUGUGACAUUCUGGAUGUACUGGACAAACACCUCAUUCCAGCAGCUAACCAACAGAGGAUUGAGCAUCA: 0.476 ratio
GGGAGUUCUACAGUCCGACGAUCAUAAGCUGCACUAGGUAUUCACAAAUGGAUCCAAGAUAAAAUCAUUUUUCUGAAACUUUUUUUAGUGAGAUGGUUUUCCAGCAAAUAGCAUUUACAAGAUAAAGUGAUUAUGUUUUUAACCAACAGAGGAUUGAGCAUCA: 4.61 ratio
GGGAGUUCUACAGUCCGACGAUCUAUACUGGGAUUGAUCAUCACUGGAAAGAAGCUGUUUUUGCCACAUGUGGACAGCAAGUAGACAUUUGGGAUGAACAAAGAACUAAUCCUAUAUGUUCAAUGACCUGGGGAUUUGACAGUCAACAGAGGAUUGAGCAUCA: 0.0928 ratio

Study 4 — target: CREB3L1, bZIP domain (human); method: DHFR protein complementation; matrix: yeast; reference: wild-type JUN-FOS pair; direction: higher = stronger binding; quantity: binding fitness
Notes: single substitutions, most at no-binding floor
Starting sequence: JUN, bZIP domain (human); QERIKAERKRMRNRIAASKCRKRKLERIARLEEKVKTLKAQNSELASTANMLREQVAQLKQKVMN; partner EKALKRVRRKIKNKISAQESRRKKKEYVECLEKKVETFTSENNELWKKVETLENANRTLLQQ
L52C: -1.5 natural log
L52Y: -1.53 natural log
A29Y: -1.53 natural log
A40S: -1.42 natural log
L31P: -1.44 natural log
Q41W: -1.55 natural log
E32M: -1.48 natural log
R30M: -1.39 natural log
L38I: -1.47 natural log
T37Q: -1.37 natural log
E32C: -1.39 natural log
T37L: -1.27 natural log
E33F: -1.36 natural log
E54T: -1.5 natural log
L45S: -1.47 natural log
A46R: -1.11 natural log
K36E: -1.28 natural log
L45A: -1.5 natural log
A46S: -1.38 natural log
E54S: -1.43 natural log
N42A: -1.44 natural log
A46H: -1.53 natural log
I28R: -1.46 natural log
I28S: -1.51 natural log
I28K: -1.45 natural log

Some of these lines once more (study 2):
F10E: -0.416
K2W: 0.278
F4M: 0.614
D11I: -0.965
T12Q: 0.734
K2C: 0.837
L7N: 1.3
T12S: 0.764
L7R: 0.748
K6G: -0.665
P13N: 1.62
R8W: 1.73
